Published values collected from several papers.
Compare with care: the assays were run in different laboratories.
Organism: Enterococcus faecium

| Structure (SMILES) | assay | test system | setting | MIC |
| --- | --- | --- | --- | --- |
| CC[C@H](C)[C@H](NC(=O)[C@H](C)NC(=O)[C@@H](NC(=O)[C@H](CC(=O)O)NC(=O)[C@H](CCCCN)NC(=O)[C@H](CO)NC(=O)[C@@H](NC(=O)[C@H](CC(N)=O)NC(=O)[C@H](C)NC(=O)[C@@H](NC(=O)[C@H](CCC(=O)O)NC(=O)[C@H](CCCCN)NC(=O)[C@@H](NC(=O)[C@@H](NC(=O)[C@H](Cc1c[nH]cn1)NC(=O)[C@H](CCCCN)NC(=O)[C@@H](NC(=O)[C@H](CCCCN)NC(=O)[C@H](CCCCN)NC(=O)[C@@H](NC(=O)[C@H](CC(C)C)NC(=O)[C@H](CCCCN)NC(=O)[C@H](CC(N)=O)NC(=O)[C@H](Cc1ccccc1)NC(=O)[C@H](CCCNC(=N)N)NC(=O)[C@H](CCCCN)NC(=O)[C@H](CCCNC(=N)N)NC(=O)[C@H](Cc1ccccc1)NC(=O)CN)C(C)C)C(C)C)[C@@H](C)O)[C@@H](C)CC)[C@@H](C)O)C(C)C)C(C)C)C(=O)N[C@H](C(=O)N[C@@H](C)C(=O)NCC(=O)N[C@@H](CO)C(=O)NCC(=O)N[C@H](C(=O)N[C@@H](C)C(=O)N[C@H](C(=O)NCC(=O)N[C@@H](C)C(=O)N[C@@H](C)C(=O)N[C@@H](CCSC)C(N)=O)C(C)C)C(C)C)C(C)C |  | DSM 17050, CAMHB |  | > 1020 mg/L |
| CC(C)CCCCCCCCC/C=C/C(=O)N[C@@H](CC(=O)O)C(=O)N[C@H]1CNC(=O)[C@@H]2CCCN2C(=O)[C@H](C(C)C)NC(=O)[C@@H](CN)NC(=O)CNC(=O)[C@H](CC(=O)O)NC(=O)CNC(=O)[C@H](CC(=O)O)NC(=O)[C@H](CC(=O)O)NC(=O)[C@H]2CCCCN2C1=O | broth microdilution | daptomycin-resistant isolate, Mueller-Hinton broth, Mg2+ 10 mg/L | 16 h, added: Ca2+ 10 mM | 2 mg/L |
| CC[C@H](C)[C@H](N)C(=O)N[C@@H](CCCNC(=N)N)C(=O)N[C@H](C(=O)N[C@@H](Cc1c[nH]c2ccccc12)C(=O)N[C@@H](CCCCN)C(=O)N[C@@H](CCCCN)C(=O)N[C@H](C(=O)N[C@H](C(=O)N[C@@H](CCCNC(=N)N)C(=O)N[C@@H](CCCCN)C(=O)N[C@@H](CCSC)C(=O)N[C@@H](CCCCN)C(=O)N[C@@H](C)C(=O)N[C@H](C(=O)N[C@@H](Cc1ccc(O)cc1)C(=O)N[C@@H](Cc1c[nH]cn1)C(N)=O)[C@@H](C)CC)C(C)C)[C@@H](C)CC)C(C)C | broth dilution | KCTC 13225 |  | > 100 µM |
| CN[C@H](CC(C)C)C(=O)N[C@H]1C(=O)N[C@@H](CC(N)=O)C(=O)N[C@H]2C(=N)N[C@H]3C(=O)N[C@H](C(=O)N[C@H](C(=O)NCCCNC(=N)N)c4cc(O)cc(O)c4-c4cc3ccc4O)[C@H](O)c3ccc(c(Cl)c3)Oc3cc2cc(c3O[C@@H]2O[C@H](CO)[C@@H](O)[C@H](O)[C@H]2O[C@H]2C[C@](C)(NCc3ccc(-c4ccc(Cl)cc4)cc3)[C@H](O)[C@H](C)O2)Oc2ccc(cc2Cl)[C@H]1O |  | BAA-2317 VanA |  | 0.04 mg/L |
| CC(C)C[C@@H](NC(=O)[C@@H](CCCNC(=N)N)NC(=O)[C@H](N)CCCNC(=N)N)C(=O)N[C@H](CC(C)C)C(=O)N[C@H](CCCNC(=N)N)C(=O)N[C@H](CCCCN)C(=O)N[C@H](CC(C)C)C(=O)N[C@H](CCCCN)C(=O)NCC(=O)N[C@H](CCCCN)C(=O)N[C@H](CCCCN)C(=O)N[C@H](CC(C)C)C(=O)N[C@H](Cc1ccc(O)cc1)C(=O)N[C@H](CC(C)C)C(=O)N[C@H](Cc1ccc(O)cc1)C(=O)N[C@H](Cc1ccccc1)C(=O)N[C@H](CCCCN)C(=O)N[C@H](CC(C)C)C(=O)N[C@H](CCC(N)=O)C(=O)N[C@H](CC(C)C)C(=O)N[C@H](CC(C)C)C(=O)N[C@H](CCCCN)C(=O)N[C@H](CCCCN)C(N)=O |  | ATCC 51559, vancomycin-resistant, Mueller-Hinton broth | 24 h | 2 µM |
| CC[C@H](C)[C@@H]1NC(=O)[C@@H]([C@@H](C)O)NC(=O)CNC(=O)[C@H](CC(=O)O)NC(=O)CNC(=O)[C@H](CC(=O)O)NC(=O)CNC(=O)[C@H]2CCCCN2C(=O)[C@@H](NC(=O)[C@H](CC(=O)O)NC(=O)/C=C/CCCCCCCCCC(C)C)CNC(=O)[C@@H]2CCCN2C1=O | broth microdilution | daptomycin-resistant isolate, Mueller-Hinton broth, Mg2+ 10 mg/L | 16 h, added: Ca2+ 5 mM | 8 mg/L |
| CN[C@H](CC(C)C)C(=O)N[C@H]1C(=O)N[C@@H](CC(N)=O)C(=O)N[C@H]2C(=O)N[C@H]3C(=O)N[C@H](C(=O)N[C@H](C(=O)O)c4cc(O)cc(O)c4-c4cc3ccc4O)[C@H](O)c3ccc(c(Cl)c3)Oc3cc2cc(c3O[C@@H]2O[C@H](CO)[C@@H](O)[C@H](O)[C@H]2O[C@H]2C[C@](C)(NCc3ccc(OCc4cn(CCCCC(=O)N[C@H](C(=O)N[C@@H](CCN)C(=O)N[C@H]5CCNC(=O)[C@H]([C@@H](C)O)NC(=O)[C@H](CCN)NC(=O)[C@H](CCN)NC(=O)[C@H](CC(C)C)NC(=O)[C@@H](CC(C)C)NC(=O)[C@H](CCN)NC5=O)[C@@H](C)O)nn4)c(OC)c3)[C@H](O)[C@H](C)O2)Oc2ccc(cc2Cl)[C@H]1O |  | VRE vanB |  | 3 µM |
| C=C1NC(=O)C2C[S+]([O-])CC3NC(=O)C(CSC(C)C(NC(=S)C(Cc4cnc[nH]4)NC(=O)c4csc(C(C)NC(C)=O)n4)C(=O)N[C@H](CC(C)C(=O)NC(=O)CC(C(=O)O)NC(=O)C(C)NC3=O)C(=O)N2)NC(=O)[C@@H]2CCCN2C(=O)[C@@H](CC(C)C)NC1=O (stereo partly drawn) |  | BM4147-1 |  | > 32 mg/L |
| C#CCNC(=O)[C@H]1NC(=O)[C@H]2NC(=O)[C@H](NC(=O)[C@@H]3NC(=O)[C@H](CC(N)=O)NC(=O)[C@H](NC(=O)[C@@H](CC(C)C)NC)[C@H](O)c4ccc(c(Cl)c4)Oc4cc3cc(c4O[C@@H]3O[C@H](CO)[C@@H](O)[C@H](O)[C@H]3O[C@H]3C[C@](C)(N)[C@H](O)[C@H](C)O3)Oc3ccc(cc3Cl)[C@H]2O)c2ccc(O)c(c2)-c2c(O)cc(O)cc21 |  | VRE vanB |  | 86 µM |
| CC(C)CCCCCCCCC/C=C/C(=O)N[C@@H](CC(N)=O)C(=O)N[C@H]1CNC(=O)[C@@H]2CCCN2C(=O)[C@H](C(C)C)NC(=O)[C@@H](CN)NC(=O)CNC(=O)[C@H](CC(=O)O)NC(=O)CNC(=O)[C@H](CC(=O)O)NC(=O)[C@H](CC(=O)O)NC(=O)[C@H]2CCCCN2C1=O | broth microdilution | daptomycin-resistant isolate, Mueller-Hinton broth, Mg2+ 10 mg/L | 16 h, added: Ca2+ 10 mM | 2 mg/L |
| CN[C@H](CC(C)C)C(=O)N[C@H]1C(=O)N[C@@H](CC(N)=O)C(=O)N[C@H]2C(=O)N[C@H]3C(=O)N[C@H](C(=O)N[C@H](C(=O)NCc4cn(CC(=O)N[C@H](C(=O)N[C@@H](CCN)C(=O)N[C@H]5CCNC(=O)[C@H]([C@@H](C)O)NC(=O)[C@H](CCN)NC(=O)[C@H](CCN)NC(=O)[C@H](CC(C)C)NC(=O)[C@@H](CC(C)C)NC(=O)[C@H](CCN)NC5=O)[C@@H](C)O)nn4)c4cc(O)cc(O)c4-c4cc3ccc4O)[C@H](O)c3ccc(c(Cl)c3)Oc3cc2cc(c3O[C@@H]2O[C@H](CO)[C@@H](O)[C@H](O)[C@H]2O[C@H]2C[C@](C)(N)[C@H](O)[C@H](C)O2)Oc2ccc(cc2Cl)[C@H]1O |  | VRE vanB |  | 0.8 µM |
| CC[C@H](C)[C@H](N)C(=O)NCC(=O)N[C@@H](CC(C)C)C(=O)N[C@H](CCC(=O)O)C(=O)N[C@H](C(=O)N[C@H]1CCCCNC(=O)[C@H](CC(N)=O)NC(=O)[C@@H](CC(=O)O)NC(=O)[C@H](Cc2c[nH]cn2)NC(=O)[C@@H](Cc2ccccc2)NC(=O)[C@H]([C@@H](C)CC)NC(=O)[C@@H](CCCN)NC1=O)[C@@H](C)CC |  | VanB vancomycin-resistant | 18 h, 37 °C, 0.3 mM ZnSO4 LB | > 64 mg/L |
| CN[C@H](CC(C)C)C(=O)N[C@H]1C(=O)N[C@@H](CC(N)=O)C(=O)N[C@H]2C(=O)N[C@H]3C(=O)N[C@H](C(=O)N[C@H](C(=O)NCC(N)=O)c4cc(O)cc(O)c4-c4cc3ccc4O)[C@H](O)c3ccc(c(Cl)c3)Oc3cc2cc(c3O[C@@H]2O[C@H](CO)[C@@H](O)[C@H](O)[C@H]2O[C@H]2C[C@](C)(NCc3ccc(OCc4cn(CC(=O)N[C@H](C(=O)N[C@@H](CCN)C(=O)N[C@H]5CCNC(=O)[C@H]([C@@H](C)O)NC(=O)[C@H](CCN)NC(=O)[C@H](CCN)NC(=O)[C@H](CC(C)C)NC(=O)[C@@H](CC(C)C)NC(=O)[C@H](CCN)NC5=O)[C@@H](C)O)nn4)c(OC)c3)[C@H](O)[C@H](C)O2)Oc2ccc(cc2Cl)[C@H]1O | broth microdilution | vancomycin-resistant vanB, tryptic soy broth | 20 to 24 h, 37 °C, 0.002% polysorbate 80 | 0.5 mg/L |
| Oc1c(Br)cc(Br)c2nc3ccc(C(F)(F)F)cc3nc12 | broth microdilution | vancomycin-resistant 700221, brain-heart infusion broth |  | 0.78 µM |
| C#CCOc1ccc(CN[C@@]2(C)C[C@H](O[C@H]3[C@H](Oc4c5cc6cc4Oc4ccc(cc4Cl)[C@@H](O)[C@@H](NC(=O)[C@@H](CC(C)C)NC)C(=O)N[C@@H](CC(N)=O)C(=O)N[C@H]6C(=O)N[C@H]4C(=O)N[C@H](C(=O)N[C@H](C(=O)NCC(N)=O)c6cc(O)cc(O)c6-c6cc4ccc6O)[C@H](O)c4ccc(c(Cl)c4)O5)O[C@H](CO)[C@@H](O)[C@@H]3O)O[C@@H](C)[C@H]2O)cc1OC |  | VRE vanB |  | 19 µM |
| CC[C@H](C)[C@H](N)C(=O)N[C@@H](CCCNC(=N)N)C(=O)N[C@H](C(=O)N[C@@H](Cc1c[nH]c2ccccc12)C(=O)N[C@@H](CCCCN)C(=O)N[C@@H](CCCCN)C(=O)N[C@H](C(=O)N[C@H](C(=O)N[C@@H](CCCNC(=N)N)C(=O)N[C@@H](CCCCN)C(=O)N[C@@H](Cc1c[nH]c2ccccc12)C(=O)N[C@@H](CCCCN)C(=O)N[C@@H](C)C(=O)N[C@H](C(=O)N[C@@H](Cc1c[nH]c2ccccc12)C(=O)N[C@@H](Cc1c[nH]cn1)C(N)=O)[C@@H](C)CC)C(C)C)[C@@H](C)CC)C(C)C | broth dilution | KCTC 13225 |  | 25 µM |
| CCCCCCCCCCCC(=O)C(C)C(=O)N1CCC[C@H]1C(=O)NC(C)(C)C(=O)NC(C)(C)C(=O)NC(C)(C)C(=O)N[C@](C)(CC)C(=O)NCCC(=O)N[C@@H](C)C(=O)N[C@](C)(CC)C(=O)N[C@@H](C)C(=O)N[C@@H](CC(C)C)C(=O)N[C@](C)(CC)C(=O)NCCC(=O)N[C@@H](C)C(=O)N[C@](C)(CC)C(=O)NCCC(=O)N[C@@H](C)C(=O)NC(C)(C)C(=O)NC(C)(C)C(=O)NC(C)(C)C(=O)N[C@@H](C)C(=O)N[C@@H](CC(=O)O)C(=O)O (stereo partly drawn) |  | ATCC 19434 |  | > 128 mg/L |
| C#CCOc1ccc(CN[C@@]2(C)C[C@H](O[C@H]3[C@H](Oc4c5cc6cc4Oc4ccc(cc4Cl)[C@@H](O)[C@@H](NC(=O)[C@@H](CC(C)C)NC)C(=O)N[C@@H](CC(N)=O)C(=O)N[C@H]6C(=O)N[C@H]4C(=O)N[C@H](C(=O)N[C@H](C(=O)O)c6cc(O)cc(O)c6-c6cc4ccc6O)[C@H](O)c4ccc(c(Cl)c4)O5)O[C@H](CO)[C@@H](O)[C@@H]3O)O[C@@H](C)[C@H]2O)cc1OC |  | VRE vanB |  | 39 µM |
